Results of several laboratories.
A part holds a random share of what one study measured.
UniProt Q9UQM7, sequence (whole entry, looked up): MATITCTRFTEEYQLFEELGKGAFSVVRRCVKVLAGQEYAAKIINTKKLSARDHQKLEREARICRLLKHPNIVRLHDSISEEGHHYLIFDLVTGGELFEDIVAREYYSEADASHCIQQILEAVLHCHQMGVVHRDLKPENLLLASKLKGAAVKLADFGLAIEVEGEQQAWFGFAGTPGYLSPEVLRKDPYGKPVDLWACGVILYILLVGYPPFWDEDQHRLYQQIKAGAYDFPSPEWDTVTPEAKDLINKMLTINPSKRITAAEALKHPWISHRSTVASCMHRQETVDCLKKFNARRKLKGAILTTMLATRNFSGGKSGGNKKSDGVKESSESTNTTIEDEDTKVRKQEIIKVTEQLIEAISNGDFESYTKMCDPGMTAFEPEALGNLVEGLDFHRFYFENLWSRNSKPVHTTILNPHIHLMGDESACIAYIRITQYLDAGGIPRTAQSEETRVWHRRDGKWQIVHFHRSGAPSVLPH
UniProt Q9NY57, sequence (whole entry, looked up): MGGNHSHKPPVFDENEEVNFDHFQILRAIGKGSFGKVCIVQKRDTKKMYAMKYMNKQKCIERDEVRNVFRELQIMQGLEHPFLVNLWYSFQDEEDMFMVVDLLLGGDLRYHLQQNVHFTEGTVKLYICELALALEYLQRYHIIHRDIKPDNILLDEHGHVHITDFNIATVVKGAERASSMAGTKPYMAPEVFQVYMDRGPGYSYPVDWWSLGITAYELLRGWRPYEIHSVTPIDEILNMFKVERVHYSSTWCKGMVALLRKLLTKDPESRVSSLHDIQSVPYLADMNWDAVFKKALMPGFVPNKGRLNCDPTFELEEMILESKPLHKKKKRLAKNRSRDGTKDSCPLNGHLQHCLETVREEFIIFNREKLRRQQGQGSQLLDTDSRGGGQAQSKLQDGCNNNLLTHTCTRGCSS
UniProt P14616, sequence (whole entry, looked up): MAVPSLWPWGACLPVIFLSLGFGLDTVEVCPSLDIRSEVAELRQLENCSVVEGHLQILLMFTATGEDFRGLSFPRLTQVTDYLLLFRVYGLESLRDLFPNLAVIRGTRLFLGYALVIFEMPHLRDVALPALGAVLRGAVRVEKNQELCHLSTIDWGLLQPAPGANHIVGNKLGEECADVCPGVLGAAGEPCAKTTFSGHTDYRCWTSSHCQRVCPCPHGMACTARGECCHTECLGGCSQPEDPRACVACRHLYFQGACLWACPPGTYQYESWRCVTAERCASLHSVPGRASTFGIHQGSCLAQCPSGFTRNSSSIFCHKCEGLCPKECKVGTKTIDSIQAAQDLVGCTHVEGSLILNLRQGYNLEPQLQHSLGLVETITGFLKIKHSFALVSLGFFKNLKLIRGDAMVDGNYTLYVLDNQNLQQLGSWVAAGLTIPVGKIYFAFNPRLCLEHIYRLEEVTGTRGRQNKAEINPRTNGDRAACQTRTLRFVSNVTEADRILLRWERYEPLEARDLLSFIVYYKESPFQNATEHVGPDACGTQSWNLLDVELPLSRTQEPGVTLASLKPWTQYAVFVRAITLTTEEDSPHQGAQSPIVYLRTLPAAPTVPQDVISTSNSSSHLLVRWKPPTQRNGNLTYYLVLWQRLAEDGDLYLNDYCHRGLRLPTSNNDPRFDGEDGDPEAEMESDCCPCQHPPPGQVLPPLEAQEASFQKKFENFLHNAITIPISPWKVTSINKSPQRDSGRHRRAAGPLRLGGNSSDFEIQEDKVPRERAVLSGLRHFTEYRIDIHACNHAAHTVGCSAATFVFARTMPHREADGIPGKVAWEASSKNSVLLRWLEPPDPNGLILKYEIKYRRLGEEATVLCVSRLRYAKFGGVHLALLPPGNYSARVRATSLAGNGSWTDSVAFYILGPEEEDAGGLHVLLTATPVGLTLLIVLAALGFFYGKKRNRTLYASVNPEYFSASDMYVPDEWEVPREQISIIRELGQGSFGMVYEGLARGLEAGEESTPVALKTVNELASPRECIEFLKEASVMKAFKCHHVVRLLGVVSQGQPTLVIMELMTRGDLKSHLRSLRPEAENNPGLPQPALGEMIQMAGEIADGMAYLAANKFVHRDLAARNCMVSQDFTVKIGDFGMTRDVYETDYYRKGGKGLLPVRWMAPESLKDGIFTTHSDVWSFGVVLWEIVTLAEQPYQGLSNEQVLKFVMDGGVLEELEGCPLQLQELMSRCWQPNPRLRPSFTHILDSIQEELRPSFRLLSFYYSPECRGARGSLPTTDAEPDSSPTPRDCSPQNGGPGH
UniProt Q8NFD2, sequence (whole entry, looked up): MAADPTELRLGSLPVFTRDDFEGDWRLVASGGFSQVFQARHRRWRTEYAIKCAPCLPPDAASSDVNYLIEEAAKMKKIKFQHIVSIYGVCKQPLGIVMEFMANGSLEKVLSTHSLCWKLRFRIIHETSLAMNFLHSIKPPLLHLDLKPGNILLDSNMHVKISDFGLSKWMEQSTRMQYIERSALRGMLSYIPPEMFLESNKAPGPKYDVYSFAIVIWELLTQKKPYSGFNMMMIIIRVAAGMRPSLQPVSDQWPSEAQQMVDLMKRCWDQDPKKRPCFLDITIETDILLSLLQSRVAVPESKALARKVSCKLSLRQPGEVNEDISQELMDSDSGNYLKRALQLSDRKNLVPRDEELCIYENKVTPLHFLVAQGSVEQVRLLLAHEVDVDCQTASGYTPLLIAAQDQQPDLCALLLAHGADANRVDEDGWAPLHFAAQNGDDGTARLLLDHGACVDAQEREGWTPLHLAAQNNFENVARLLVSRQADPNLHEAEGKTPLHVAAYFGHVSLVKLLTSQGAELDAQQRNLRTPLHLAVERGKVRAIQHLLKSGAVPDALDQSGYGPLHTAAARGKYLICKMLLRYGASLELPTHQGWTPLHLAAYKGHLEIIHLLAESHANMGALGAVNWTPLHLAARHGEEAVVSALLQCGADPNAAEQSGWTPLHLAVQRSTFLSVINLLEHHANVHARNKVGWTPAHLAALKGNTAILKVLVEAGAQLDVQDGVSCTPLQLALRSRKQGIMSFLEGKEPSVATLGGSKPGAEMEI
UniProt Q15349, sequence (whole entry, looked up): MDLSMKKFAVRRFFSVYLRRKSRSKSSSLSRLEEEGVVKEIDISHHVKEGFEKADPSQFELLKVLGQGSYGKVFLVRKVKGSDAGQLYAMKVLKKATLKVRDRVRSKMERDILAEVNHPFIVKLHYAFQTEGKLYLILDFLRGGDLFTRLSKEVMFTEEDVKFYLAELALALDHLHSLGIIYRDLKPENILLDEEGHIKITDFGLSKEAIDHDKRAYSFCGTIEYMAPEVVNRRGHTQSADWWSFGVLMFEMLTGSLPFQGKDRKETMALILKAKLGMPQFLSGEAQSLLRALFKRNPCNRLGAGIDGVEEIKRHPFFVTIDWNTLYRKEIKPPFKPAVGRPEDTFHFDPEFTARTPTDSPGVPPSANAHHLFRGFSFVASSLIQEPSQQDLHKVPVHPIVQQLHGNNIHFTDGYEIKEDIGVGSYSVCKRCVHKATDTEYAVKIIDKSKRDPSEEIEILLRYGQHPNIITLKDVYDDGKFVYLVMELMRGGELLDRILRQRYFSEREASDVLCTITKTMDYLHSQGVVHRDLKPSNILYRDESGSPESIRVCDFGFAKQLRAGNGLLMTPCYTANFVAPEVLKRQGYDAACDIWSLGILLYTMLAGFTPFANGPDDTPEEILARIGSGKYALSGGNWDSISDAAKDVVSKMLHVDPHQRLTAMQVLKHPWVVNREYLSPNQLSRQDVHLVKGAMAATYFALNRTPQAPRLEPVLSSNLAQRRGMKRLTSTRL
UniProt Q07912, sequence (whole entry, looked up): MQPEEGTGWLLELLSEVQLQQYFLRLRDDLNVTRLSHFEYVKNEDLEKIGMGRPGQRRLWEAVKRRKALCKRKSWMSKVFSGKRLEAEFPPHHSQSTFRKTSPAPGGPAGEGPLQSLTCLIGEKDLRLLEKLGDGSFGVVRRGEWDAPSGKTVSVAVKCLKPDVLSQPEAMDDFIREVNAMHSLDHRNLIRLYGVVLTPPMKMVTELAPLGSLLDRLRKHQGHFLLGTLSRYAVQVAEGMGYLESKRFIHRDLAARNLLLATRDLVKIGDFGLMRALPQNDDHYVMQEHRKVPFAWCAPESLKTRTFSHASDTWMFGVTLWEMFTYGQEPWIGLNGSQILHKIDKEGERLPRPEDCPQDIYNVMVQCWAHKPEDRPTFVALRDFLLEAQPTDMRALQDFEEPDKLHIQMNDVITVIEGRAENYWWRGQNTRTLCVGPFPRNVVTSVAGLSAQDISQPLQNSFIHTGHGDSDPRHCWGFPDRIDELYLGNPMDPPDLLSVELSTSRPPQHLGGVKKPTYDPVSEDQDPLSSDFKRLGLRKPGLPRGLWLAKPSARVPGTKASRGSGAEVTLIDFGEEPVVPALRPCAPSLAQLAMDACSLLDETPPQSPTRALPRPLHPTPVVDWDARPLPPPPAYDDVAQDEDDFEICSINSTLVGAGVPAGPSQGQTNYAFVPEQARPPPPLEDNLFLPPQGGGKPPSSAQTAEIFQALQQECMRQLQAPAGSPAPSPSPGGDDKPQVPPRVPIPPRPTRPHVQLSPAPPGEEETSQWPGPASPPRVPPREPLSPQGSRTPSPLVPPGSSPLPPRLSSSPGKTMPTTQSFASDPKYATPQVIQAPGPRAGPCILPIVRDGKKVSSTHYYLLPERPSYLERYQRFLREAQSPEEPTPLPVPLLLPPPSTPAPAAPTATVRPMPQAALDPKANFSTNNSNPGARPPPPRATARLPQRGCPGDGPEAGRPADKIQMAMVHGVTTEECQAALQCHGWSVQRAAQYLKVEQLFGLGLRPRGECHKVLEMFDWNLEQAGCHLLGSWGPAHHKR
UniProt Q96GD4, sequence (whole entry, looked up): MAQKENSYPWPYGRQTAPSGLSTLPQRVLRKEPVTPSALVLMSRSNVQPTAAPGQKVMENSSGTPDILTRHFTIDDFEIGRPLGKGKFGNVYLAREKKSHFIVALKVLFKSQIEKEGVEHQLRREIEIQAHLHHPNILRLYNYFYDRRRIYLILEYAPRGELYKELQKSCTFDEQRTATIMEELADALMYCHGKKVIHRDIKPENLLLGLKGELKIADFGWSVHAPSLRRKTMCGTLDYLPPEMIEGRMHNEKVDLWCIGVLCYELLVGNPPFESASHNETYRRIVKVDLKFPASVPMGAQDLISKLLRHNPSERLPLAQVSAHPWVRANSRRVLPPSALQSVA

Set 1
Compound: Cn1cc(Cl)c2c(Oc3c(F)cc(Nc4cc(Cl)nc(N)n4)cc3F)ccnc21
Method: competition with immobilised ligand
Concentration: 0.1 µM
| target | effect on | remaining binding [%] |
| --- | --- | --- |
| Insulin receptor-related protein (INSRR, Homo sapiens, UniProt P14616) | cell-free assay | 100 |
| Aurora kinase B (AURKB, Homo sapiens, UniProt Q96GD4) | cell-free assay | 78 |
| Fibroblast growth factor receptor 3 (FGFR3, Homo sapiens, UniProt P22607, G697C) | cell-free assay | 100 |
| Serine/threonine-protein kinase 32B (STK32B, Homo sapiens, UniProt Q9NY57) | cell-free assay | 99 |
| Cyclin-dependent kinase 8 (CDK8, Homo sapiens, UniProt P49336) | cell-free assay | 97 |
| Ankyrin repeat and protein kinase domain-containing protein 1 (ANKK1, Homo sapiens, UniProt Q8NFD2) | cell-free assay | 83 |
| Uncharacterized serine/threonine-protein kinase SBK3 (SBK3, Homo sapiens, UniProt P0C264) | cell-free assay | 65 |
| STE20-like serine/threonine-protein kinase (SLK, Homo sapiens, UniProt Q9H2G2) | cell-free assay | 98 |
| Serine/threonine-protein kinase 35 (STK35, Homo sapiens, UniProt Q8TDR2) | cell-free assay | 99 |
| Aurora kinase A (AURKA, Homo sapiens, UniProt O14965) | cell-free assay | 100 |
| Calcium/calmodulin-dependent protein kinase type IV (CAMK4, Homo sapiens, UniProt Q16566) | cell-free assay | 96 |
| Hepatocyte growth factor receptor (MET, Homo sapiens, UniProt P08581) | cell-free assay | 90 |
| eIF-2-alpha kinase GCN2, C-terminal kinase domain (EIF2AK4, Homo sapiens, UniProt Q9P2K8, S808G) | cell-free assay | 100 |
| Ephrin type-B receptor 6 (EPHB6, Homo sapiens, UniProt O15197) | cell-free assay | 100 |
| Serine/threonine-protein kinase haspin (HASPIN, Homo sapiens, UniProt Q8TF76) | cell-free assay | 74 |
| Calcium/calmodulin-dependent protein kinase type II subunit alpha (CAMK2A, Homo sapiens, UniProt Q9UQM7) | cell-free assay | 82 |
| Casein kinase I isoform gamma-3 (CSNK1G3, Homo sapiens, UniProt Q9Y6M4) | cell-free assay | 100 |
| Myosin-IIIb (MYO3B, Homo sapiens, UniProt Q8WXR4) | binding | 57 |
| Tyrosine-protein kinase ABL1, phosphorylated (ABL1, Homo sapiens, UniProt P00519, T315I) | cell-free assay | 86 |
| ALK tyrosine kinase receptor (ALK, Homo sapiens, UniProt Q9UM73, L1196M) | cell-free assay | 100 |
| Serine/threonine-protein kinase MAK (MAK, Homo sapiens, UniProt P20794) | cell-free assay | 97 |
| Epidermal growth factor receptor (EGFR, Homo sapiens, UniProt P00533, L858R) | cell-free assay | 98 |

Set 2
SMILES: CC#CC(=O)N1CCC[C@H]1c1nc(-c2ccc(C(=O)Nc3ccccn3)cc2)c2c(N)nccn12
Action: inhibitor
Concentration: 1 µM
| target | effect on | inhibition |
| --- | --- | --- |
| Misshapen-like kinase 1 (MINK1, Homo sapiens, UniProt Q8N4C8) | enzyme activity | 9% |
| Cyclin-dependent kinase-like 3 (CDKL3, Homo sapiens, UniProt Q8IVW4) | enzyme activity | 0% |
| Serine/threonine-protein kinase TAO3 (TAOK3, Homo sapiens, UniProt Q9H2K8) | enzyme activity | 8% |
| Serine/threonine-protein kinase 32B (STK32B, Homo sapiens, UniProt Q9NY57) | enzyme activity | 20% |
| Serine/threonine-protein kinase MRCK alpha (CDC42BPA, Homo sapiens, UniProt Q5VT25) | enzyme activity | 0% |
| Cyclin-dependent kinase 13 (CDK13, Homo sapiens, UniProt Q14004) | enzyme activity | 0% |
| Serine/threonine-protein kinase WNK1 (WNK1, Homo sapiens, UniProt Q9H4A3) | enzyme activity | 0% |
| Tyrosine-protein kinase ABL1, phosphorylated (ABL1, Homo sapiens, UniProt P00519, F317I) | enzyme activity | 0% |
| Ribosomal protein S6 kinase alpha-2, kinase domain 1 (RPS6KA2, Homo sapiens, UniProt Q15349) | – | 3% |
| Myotonin-protein kinase (DMPK, Homo sapiens, UniProt Q09013) | enzyme activity | 3% |
| Ankyrin repeat and protein kinase domain-containing protein 1 (ANKK1, Homo sapiens, UniProt Q8NFD2) | enzyme activity | 0% |
| Phosphatidylinositol 4,5-bisphosphate 3-kinase catalytic subunit alpha isoform (PIK3CA, Homo sapiens, UniProt P42336, M1043I) | enzyme activity | 0% |
| Dual specificity protein kinase CLK4 (CLK4, Homo sapiens, UniProt Q9HAZ1) | enzyme activity | 13% |

Set 3
Target: Calcium/calmodulin-dependent protein kinase type II subunit alpha (CAMK2A, Homo sapiens, UniProt Q9UQM7)
Effect on: enzyme activity
Action: inhibitor
Concentration: 10 µM
| SMILES | inhibition [%] |
| --- | --- |
| O=P(O)(O)O[C@H]1O[C@H](CO)[C@H](O)[C@H](O)[C@H]1O | -6 |
| C=CC(=O)N1CCN(c2nc(=O)n(-c3c(C)ccnc3C(C)C)c3nc(-c4c(O)cccc4F)c(F)cc23)[C@@H](C)C1 | -0.03 |
| CCO[C@@H]1O[C@H](C(=O)O)[C@@H](O)[C@H](O)[C@H]1O | -30 |
| COC(=O)/C=C/c1ccccc1 | -56 |
| O=S(=O)(c1cccc2cnccc12)N1CCCNCC1 | -3 |
| CC(/C=C/C=C(\C)C(=O)O[C@@H]1O[C@H](CO)[C@@H](O)[C@H](O)[C@H]1O)=C\C=C\C=C(C)\C=C\C=C(/C)C(=O)O[C@@H]1O[C@H](CO[C@@H]2O[C@H](CO)[C@@H](O)[C@H](O)[C@H]2O)[C@@H](O)[C@H](O)[C@H]1O | 1 |
| NNc1nncc2ccccc12 | -14 |
| O=C1C[C@@H](c2ccc(O[C@@H]3O[C@H](CO)[C@@H](O)[C@H](O)[C@H]3O)cc2)Oc2cc(O)cc(O)c21 | -24 |
| NS(=O)(=O)c1cc2c(cc1Cl)N=C(CSCc1ccccc1)NS2(=O)=O | -3 |
| C[C@@H]1O[C@@H](OC[C@H]2O[C@@H](Oc3c(-c4ccc(O)cc4)oc4cc(O)cc(O)c4c3=O)[C@H](O[C@@H]3O[C@@H](C)[C@H](O)[C@@H](O)[C@H]3O)[C@@H](O)[C@H]2O)[C@H](O)[C@H](O)[C@H]1O | -38 |
| C[C@@H]1CC[C@H]2[C@@H](C)C(O)O[C@@H]3O[C@@]4(C)CC[C@@H]1[C@]32OO4 (stereo partly drawn) | -1 |
| C[C@@H](O)[C@@H](N)C(=O)O | 9 |
| C[C@@H]1CC[C@]2(C(=O)O[C@@H]3O[C@H](CO)[C@@H](O)[C@H](O)[C@H]3O)CC[C@]3(C)C(=CC[C@@H]4[C@@]5(C)C[C@@H](O)[C@H](O)[C@@](C)(CO)[C@@H]5CC[C@]43C)[C@@H]2[C@]1(C)O | 1 |
| OCC(O)[C@@H](O)[C@H](O)[C@H](O)CO[C@H]1O[C@H](CO)[C@@H](O)[C@H](O)[C@H]1O (stereo partly drawn) | -41 |
| Cc1c(O)cc2c(c1O)C(=O)c1ccccc1C2=O | 6 |
| CCCCC/C=C\C/C=C\CCCCCCCC(=O)OC | -74 |

Set 4
Compound: CC(=O)O/N=C1/C(c2c(O)[nH]c3cc(Br)ccc23)=Nc2ccccc21
Effect on: enzyme activity
Action: inhibitor
Concentration: 0.5 µM
Relative to: control
| target | remaining activity |
| --- | --- |
| Fibroblast growth factor receptor 2 (FGFR2, Homo sapiens, UniProt P21802) | 85.8% |
| Serine/threonine-protein kinase PLK1 (PLK1, Homo sapiens, UniProt P53350) | 105% |
| Mitogen-activated protein kinase kinase kinase kinase 5 (MAP4K5, Homo sapiens, UniProt Q9Y4K4) | 24.1% |
| Receptor-interacting serine/threonine-protein kinase 2 (RIPK2, Homo sapiens, UniProt O43353) | 108% |
| Activated CDC42 kinase 1 (TNK2, Homo sapiens, UniProt Q07912) | 74.7% |
| Serine/threonine-protein kinase ULK1 (ULK1, Homo sapiens, UniProt O75385) | 95.6% |
| Mitogen-activated protein kinase kinase kinase 9 (MAP3K9, Homo sapiens, UniProt P80192) | 51.5% |
| Insulin receptor-related protein (INSRR, Homo sapiens, UniProt P14616) | 96.7% |
| Serine/threonine-protein kinase TAO1 (TAOK1, Homo sapiens, UniProt Q7L7X3) | 126% |
| Activin receptor type-1 (ACVR1, Homo sapiens, UniProt Q04771) | 102% |
| BDNF/NT-3 growth factors receptor (NTRK2, Homo sapiens, UniProt Q16620) | 38.4% |
| Serine/threonine-protein kinase Sgk3 (SGK3, Homo sapiens, UniProt Q96BR1) | 100% |
| Serine/threonine-protein kinase D3 (PRKD3, Homo sapiens, UniProt O94806) | 84.9% |
| RAF proto-oncogene serine/threonine-protein kinase (RAF1, Homo sapiens, UniProt P04049) | 100% |
| Dual specificity tyrosine-phosphorylation-regulated kinase 2 (DYRK2, Homo sapiens, UniProt Q92630) | 94.4% |
| Dual serine/threonine and tyrosine protein kinase (DSTYK, Homo sapiens, UniProt Q6XUX3) | 81.1% |
| Tyrosine-protein kinase HCK (HCK, Homo sapiens, UniProt P08631) | 43.1% |
| Serine/threonine-protein kinase VRK1 (VRK1, Homo sapiens, UniProt Q99986) | 80.7% |

Some of these lines once more (set 3):
| SMILES | inhibition [%] |
| --- | --- |
| CCO[C@@H]1O[C@H](C(=O)O)[C@@H](O)[C@H](O)[C@H]1O | -30 |
| COC(=O)/C=C/c1ccccc1 | -56 |
| O=S(=O)(c1cccc2cnccc12)N1CCCNCC1 | -3 |
| CC(/C=C/C=C(\C)C(=O)O[C@@H]1O[C@H](CO)[C@@H](O)[C@H](O)[C@H]1O)=C\C=C\C=C(C)\C=C\C=C(/C)C(=O)O[C@@H]1O[C@H](CO[C@@H]2O[C@H](CO)[C@@H](O)[C@H](O)[C@H]2O)[C@@H](O)[C@H](O)[C@H]1O | 1 |
| NNc1nncc2ccccc12 | -14 |
| O=C1C[C@@H](c2ccc(O[C@@H]3O[C@H](CO)[C@@H](O)[C@H](O)[C@H]3O)cc2)Oc2cc(O)cc(O)c21 | -24 |
